Results collected from several papers.
Numbered parts are unrelated; each lists some results of a single study. Several values in a cell are separate wells, animals, samples, runs or records.

Study 1
Compound: Cn1cc(-c2cccc(CN3CCC4(CC3)COc3c4ccc4c3CN([C@H]3CCC(=O)NC3=O)C4=O)c2)cn1
Action: degrader
CRBN/Zinc finger protein Helios: CRBN/Zinc finger protein Helios (Homo sapiens, UniProt Q96SW2+Q9UKS7)
Sequence of UniProt Q9UKS7 (whole entry, looked up): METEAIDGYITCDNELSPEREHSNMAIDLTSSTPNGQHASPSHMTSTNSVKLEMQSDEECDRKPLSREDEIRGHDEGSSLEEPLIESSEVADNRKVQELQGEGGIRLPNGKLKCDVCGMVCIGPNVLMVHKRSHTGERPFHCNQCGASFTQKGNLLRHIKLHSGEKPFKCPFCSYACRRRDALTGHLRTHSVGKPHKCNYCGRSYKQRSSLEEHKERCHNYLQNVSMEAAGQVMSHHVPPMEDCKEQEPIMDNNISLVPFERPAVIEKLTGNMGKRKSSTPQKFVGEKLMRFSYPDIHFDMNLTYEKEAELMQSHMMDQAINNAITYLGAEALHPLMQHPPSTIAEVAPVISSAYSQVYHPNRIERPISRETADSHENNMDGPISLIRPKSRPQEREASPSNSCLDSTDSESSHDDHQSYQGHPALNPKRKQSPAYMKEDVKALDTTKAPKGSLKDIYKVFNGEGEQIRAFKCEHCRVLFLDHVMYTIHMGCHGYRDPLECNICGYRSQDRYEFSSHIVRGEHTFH
Sequence of UniProt Q96SW2 (whole entry, looked up): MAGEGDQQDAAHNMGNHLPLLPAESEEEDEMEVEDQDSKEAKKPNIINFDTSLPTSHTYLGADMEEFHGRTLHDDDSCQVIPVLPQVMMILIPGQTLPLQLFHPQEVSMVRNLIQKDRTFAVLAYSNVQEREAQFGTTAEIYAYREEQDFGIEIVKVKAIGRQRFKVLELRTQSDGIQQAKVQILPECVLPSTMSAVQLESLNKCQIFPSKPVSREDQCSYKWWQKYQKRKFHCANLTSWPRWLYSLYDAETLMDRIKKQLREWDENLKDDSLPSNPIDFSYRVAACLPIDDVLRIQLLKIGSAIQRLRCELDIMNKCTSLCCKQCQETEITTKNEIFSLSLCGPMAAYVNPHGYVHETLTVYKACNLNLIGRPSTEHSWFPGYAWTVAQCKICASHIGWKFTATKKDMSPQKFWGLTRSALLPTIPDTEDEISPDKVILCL
Ikzf2/Crbn I391V: Ikzf2/Crbn (Mus musculus, UniProt P81183+Q8C7D2, I391V)
Sequence of UniProt Q8C7D2 (whole entry, unmodified, looked up): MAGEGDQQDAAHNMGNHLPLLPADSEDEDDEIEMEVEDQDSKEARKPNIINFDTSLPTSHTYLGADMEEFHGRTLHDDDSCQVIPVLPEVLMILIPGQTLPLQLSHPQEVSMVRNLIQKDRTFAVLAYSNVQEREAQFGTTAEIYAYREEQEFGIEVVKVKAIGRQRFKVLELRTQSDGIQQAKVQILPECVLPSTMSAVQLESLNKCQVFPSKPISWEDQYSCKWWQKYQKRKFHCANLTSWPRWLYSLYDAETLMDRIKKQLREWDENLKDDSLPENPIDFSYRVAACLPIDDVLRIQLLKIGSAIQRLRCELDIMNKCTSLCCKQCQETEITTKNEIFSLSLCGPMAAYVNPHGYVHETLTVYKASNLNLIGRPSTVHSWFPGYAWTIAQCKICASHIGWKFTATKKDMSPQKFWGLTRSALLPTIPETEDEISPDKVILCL
Sequence of UniProt P81183 (whole entry, unmodified, looked up): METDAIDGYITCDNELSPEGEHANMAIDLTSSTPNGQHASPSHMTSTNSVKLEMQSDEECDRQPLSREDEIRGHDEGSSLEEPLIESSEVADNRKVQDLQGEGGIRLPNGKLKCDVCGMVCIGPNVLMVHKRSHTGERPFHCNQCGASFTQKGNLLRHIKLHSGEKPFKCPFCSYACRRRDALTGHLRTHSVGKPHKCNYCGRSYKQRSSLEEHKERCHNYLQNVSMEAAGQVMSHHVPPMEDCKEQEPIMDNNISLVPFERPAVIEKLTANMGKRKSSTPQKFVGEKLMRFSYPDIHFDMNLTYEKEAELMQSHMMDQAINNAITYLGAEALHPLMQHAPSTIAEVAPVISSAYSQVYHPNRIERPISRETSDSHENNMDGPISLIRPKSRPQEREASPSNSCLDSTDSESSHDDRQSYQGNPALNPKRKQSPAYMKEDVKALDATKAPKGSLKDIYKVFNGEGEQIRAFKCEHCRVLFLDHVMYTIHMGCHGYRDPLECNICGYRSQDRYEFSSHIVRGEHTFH
CRBN/Zinc finger protein Helios; HiBiT; HEK293; 1000 nM, 0.5 h — protein remaining: 63.9% and 67.9%.
For CRBN/Zinc finger protein Helios; HiBiT; HEK293; 333.3 nM: protein remaining read 7.14% and 11.1%.
For CRBN/Zinc finger protein Helios; HiBiT; HEK293; 333.3 nM, 3 h: protein remaining read 13.1% and 15.9%.
CRBN/Zinc finger protein Helios; HiBiT; HEK293; 111.1 nM, 0.5 h — protein remaining: 69.4% and 75.6%.
The protein remaining was 94.9% and 100% (CRBN/Zinc finger protein Helios; HiBiT; HEK293; 0.05081 nM, 0.5 h).
For CRBN/Zinc finger protein Helios; HiBiT; HEK293; 333.3 nM, 6 h: protein remaining read 10.5% and 16.1%.
The protein remaining was 74.7% and 71% (CRBN/Zinc finger protein Helios; HiBiT; HEK293; 37.04 nM, 0.5 h).
The protein remaining was 23.3% and 23.7% (CRBN/Zinc finger protein Helios; HiBiT; HEK293; 12.35 nM, 3 h).
Ikzf2/Crbn I391V; Crbn I391V mouse, spleen; 30 mg/kg, 24 h — protein remaining: 40% and 45% and 23% and 26%.
Ikzf2/Crbn I391V; Crbn I391V mouse, thymus; 30 mg/kg, 12 h — protein remaining: 8%.
Ikzf2/Crbn I391V; Crbn I391V mouse, spleen; 30 mg/kg, 12 h — protein remaining: 22% and 15% and 8% and 19%.
Ikzf2/Crbn I391V; Crbn I391V mouse, spleen; 10 mg/kg, 6 h — protein remaining: 22% and 30% and 38%.
Ikzf2/Crbn I391V; Crbn I391V mouse, thymus; 100 mg/kg, 6 h — protein remaining: 22% and 26% and 27% and 34%.
It gave 86.9% and 93.5% for protein remaining (CRBN/Zinc finger protein Helios; HiBiT; HEK293; 0.1524 nM, 1 h).

Study 2
Compound: N=C(N)NCCCCCCN1CCC23c4c5ccc(O)c4OC2c2nc4ccccc4cc2CC3(O)C1C5 (stereo not drawn)
Method: modified Racine scale
Species: C57BL/6J mice, male
Route: intracerebroventricular
Dose: 100 nmol
Reading: direction not given
For 20 min: seizure score read 0.
15 min — seizure score: 0.
40 min — seizure score: 0.

Study 3
SMILES: CCOC(=O)/C=C/CN(CCCCN1c2ccccc2CCc2ccc(Cl)cc21)Cc1ccccc1.O=C(O)/C=C\C(=O)O
Target: E3 ubiquitin-protein ligase NEDD4, HECT domain (Homo sapiens, UniProt P46934)
Observed: enzyme activity
Action: inhibitor
Method: Ub-TR-FRET
Sample: HECT domain
Reading: higher = more chain formation
Construct (P46934 938-1319, limits assumed): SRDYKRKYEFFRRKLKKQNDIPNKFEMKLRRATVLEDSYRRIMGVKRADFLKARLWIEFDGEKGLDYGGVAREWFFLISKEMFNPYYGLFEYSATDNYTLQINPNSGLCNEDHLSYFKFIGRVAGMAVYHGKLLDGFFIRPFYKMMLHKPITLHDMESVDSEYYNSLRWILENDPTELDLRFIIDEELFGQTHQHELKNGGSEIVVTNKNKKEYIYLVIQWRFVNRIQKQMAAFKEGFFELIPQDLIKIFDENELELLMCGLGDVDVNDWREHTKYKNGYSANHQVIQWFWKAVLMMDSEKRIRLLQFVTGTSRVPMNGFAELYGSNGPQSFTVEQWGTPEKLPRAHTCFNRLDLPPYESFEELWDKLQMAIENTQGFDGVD
100 µM — “ubiquitin chain formation AUC”: 111000 a.u. and 123000 a.u. and 119000 a.u. and 112000 a.u. and 124000 a.u. and 110000 a.u.
3.704 µM — “ubiquitin chain formation AUC”: 100000 a.u. and 99300 a.u. and 95500 a.u. and 111000 a.u. and 108000 a.u. and 107000 a.u.
For 11.11 µM: “ubiquitin chain formation AUC” read 114000 a.u. and 106000 a.u. and 105000 a.u. and 104000 a.u. and 115000 a.u. and 113000 a.u.

Study 4
Structure (SMILES): CCCCC[C@@H]1CC(=O)N[C@@H](C(C)C)C(=O)N[C@H](CCCNC(=N)N)C(=O)N[C@@H](C(C)C)C(=O)NCC(=O)N2CCC[C@H]2C(=O)N[C@@H](CC(C)C)C(=O)N[C@H](CCCNC(=N)N)C(=O)N[C@@H](CCC(=O)O)C(=O)N[C@H](Cc2ccc(O)cc2)C(=O)N[C@H](Cc2c[nH]c3ccccc23)C(=O)NCCCC(=O)O1
Species: mouse, S. aureus infection
Route: subcutaneous
For 10 mg/kg, day 0: survival read 100%.
30 mg/kg, day 5 — survival: 100%.
It gave 100% for survival (10 mg/kg, day 1).
For 5 mg/kg, day 0: survival read 100%.

Mixed results
OGT: UDP-N-acetylglucosamine--peptide N-acetylglucosaminyltransferase 110 kDa subunit (OGT, Homo sapiens, UniProt O15294)
Sequence of UniProt O15294 (whole entry, looked up): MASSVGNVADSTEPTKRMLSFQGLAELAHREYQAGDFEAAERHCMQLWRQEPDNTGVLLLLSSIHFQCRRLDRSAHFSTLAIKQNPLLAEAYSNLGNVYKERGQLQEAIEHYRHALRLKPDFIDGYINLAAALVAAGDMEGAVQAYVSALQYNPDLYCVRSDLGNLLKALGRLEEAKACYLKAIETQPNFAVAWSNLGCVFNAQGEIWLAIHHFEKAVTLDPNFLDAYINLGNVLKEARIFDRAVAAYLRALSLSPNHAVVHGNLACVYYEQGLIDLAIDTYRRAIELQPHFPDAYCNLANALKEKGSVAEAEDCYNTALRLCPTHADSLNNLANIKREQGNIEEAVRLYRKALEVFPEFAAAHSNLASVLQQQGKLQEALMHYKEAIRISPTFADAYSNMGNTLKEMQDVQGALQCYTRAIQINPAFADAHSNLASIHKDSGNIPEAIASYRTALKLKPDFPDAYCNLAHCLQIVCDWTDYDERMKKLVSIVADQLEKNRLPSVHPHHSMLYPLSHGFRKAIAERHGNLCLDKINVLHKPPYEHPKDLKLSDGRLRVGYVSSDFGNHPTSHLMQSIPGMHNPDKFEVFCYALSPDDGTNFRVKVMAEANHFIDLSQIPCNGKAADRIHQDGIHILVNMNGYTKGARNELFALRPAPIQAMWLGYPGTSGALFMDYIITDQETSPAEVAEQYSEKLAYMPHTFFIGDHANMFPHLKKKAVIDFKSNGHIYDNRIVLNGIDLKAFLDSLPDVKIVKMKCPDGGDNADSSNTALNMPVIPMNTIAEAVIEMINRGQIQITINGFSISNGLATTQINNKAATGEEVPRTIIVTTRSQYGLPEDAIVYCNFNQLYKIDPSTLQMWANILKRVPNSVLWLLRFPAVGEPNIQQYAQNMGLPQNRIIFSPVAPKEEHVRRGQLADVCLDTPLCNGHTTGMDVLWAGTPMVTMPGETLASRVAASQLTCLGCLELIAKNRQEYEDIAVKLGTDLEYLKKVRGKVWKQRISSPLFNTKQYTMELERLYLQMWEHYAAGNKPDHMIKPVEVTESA
The IC50 of CC[C@H](C)[C@H](NC(=O)[C@H](CO)NC(=O)[C@H](Cc1ccc(O)cc1)NC(=O)[C@H](CCCCN)NC(=O)[C@@H]1CCCN1C(=O)[C@H](CCSC)NC(=O)[C@H](Cc1ccccc1)NC(=O)[C@H](CCSC)NC(=O)[C@@H](NC(=O)[C@@H]1CCCN1C(=O)[C@H](Cc1ccccc1)NC(=O)[C@H](CC(=O)O)NC(=O)CN)C(C)C)C(=O)O is reported as > 200 µM (OGT; enzyme activity, inhibitor, fluorescence).
With Cc1cc(-c2cnc(N)c3c(-c4ccc5scnc5c4)csc23)n(C)n1 the viability was 35.4% and 48.5% and 40.9% and 33.7% and 46.4% (L929; MEM 10% FBS; 12.5 µM).
CC[C@H](C)[C@H](NC(=O)[C@H](CO)NC(=O)[C@H](Cc1ccc(O)cc1)NC(=O)[C@H](CCCCN)NC(=O)[C@@H]1CCCN1C(=O)[C@H](CCSC)NC(=O)[C@@H](N)Cc1ccccc1)C(=O)O gave an IC50 of > 200 µM (OGT; enzyme activity, inhibitor, fluorescence).
The viability of CC(C)(C)n1nc(-c2ccc(Cl)cc2)c2c(N)ncnc21 is reported as 65.6% (L929; necroptosis protection, CCK-8; 10 µM, together with: TNF-α-induced).
CSCC[C@H](NC(=O)[C@H](Cc1ccccc1)NC(=O)[C@H](CCSC)NC(=O)[C@@H](NC(=O)[C@@H]1CCCN1C(=O)[C@H](Cc1ccccc1)NC(=O)[C@H](CC(=O)O)NC(=O)CN)C(C)C)C(=O)O has an IC50 of > 200 µM (OGT; enzyme activity, inhibitor, fluorescence).
For Cc1c(NC(=O)c2cccn(-c3ccc(F)cc3)c2=O)ccc(Oc2ccnc(NC(=O)C3CC3)c2)c1C, the viability was 81.1% (L929; necroptosis protection, CCK-8; 10 µM, together with: TNF-α-induced).

Repeated from above (mixed results):
CC[C@H](C)[C@H](NC(=O)[C@H](CO)NC(=O)[C@H](Cc1ccc(O)cc1)NC(=O)[C@H](CCCCN)NC(=O)[C@@H]1CCCN1C(=O)[C@H](CCSC)NC(=O)[C@@H](N)Cc1ccccc1)C(=O)O gave an IC50 of > 200 µM (OGT; enzyme activity, inhibitor, fluorescence).
The viability of CC(C)(C)n1nc(-c2ccc(Cl)cc2)c2c(N)ncnc21 is reported as 65.6% (L929; necroptosis protection, CCK-8; 10 µM, together with: TNF-α-induced).
CSCC[C@H](NC(=O)[C@H](Cc1ccccc1)NC(=O)[C@H](CCSC)NC(=O)[C@@H](NC(=O)[C@@H]1CCCN1C(=O)[C@H](Cc1ccccc1)NC(=O)[C@H](CC(=O)O)NC(=O)CN)C(C)C)C(=O)O has an IC50 of > 200 µM (OGT; enzyme activity, inhibitor, fluorescence).
For Cc1c(NC(=O)c2cccn(-c3ccc(F)cc3)c2=O)ccc(Oc2ccnc(NC(=O)C3CC3)c2)c1C, the viability was 81.1% (L929; necroptosis protection, CCK-8; 10 µM, together with: TNF-α-induced).
